Experimental data pooled from the literature.
Every numbered part comes from another study and shows a few of its results, in no order.

Series 1 — technique: protein binding microarray; molecule type: double-stranded DNA, one strand shown; medium: in vitro; tested at: not given; reference: not given; reading: higher = stronger binding; measurement: E-score
Target: Histone acetyltransferase KAT6A, winged helix 1, GST fusion (KAT6A, Homo sapiens, UniProt Q92794, residues 1-85)
Notes: 8-mer, flanks averaged, mean of 2 arrays, mostly near background
Target sequence (chain): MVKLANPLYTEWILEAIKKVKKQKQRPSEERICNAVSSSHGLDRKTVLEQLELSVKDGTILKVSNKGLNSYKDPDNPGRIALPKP
GGGGGGCA: -0.101
AAACGCTT: -0.119
ATCCCCAG: -0.309
AACGCGAT: 0.122
GGGACCCC: 0.14
CTCCTCTA: -0.224
AGGTCTTG: -0.121
CGGGCTTC: 0.243
ATAGTACC: 0.0523
GTGAGACA: -0.101
AGCACGTG: -0.0864
AGCAGCTA: -0.27
AGGGGTCC: 0.0475
CACGGAGG: 0.0599
AGGTATGG: -0.0179
TATTCTAA: -0.211
CATGATGA: -0.193
AGCAGGAT: -0.312
ATGGAAAC: -0.122

Series 2 — technique: RNA Bind-n-Seq; molecule type: RNA; medium: in vitro; tested at: 365 nM; reference: no-protein control; reading: higher = stronger binding; measurement: RBNS enrichment (R)
Target: RNA binding protein fox-1 homolog 2, RRM domain, GST-SBP tag (RBFOX2, Homo sapiens, UniProt O43251-10, residues 100-194)
Notes: natural RNA segment, single round, ends assumed
Constant ends, left off below: GGGAGUUCUACAGUCCGACGAUC … UGGAAUUCUCGGGUGCCAA
Construct (chain): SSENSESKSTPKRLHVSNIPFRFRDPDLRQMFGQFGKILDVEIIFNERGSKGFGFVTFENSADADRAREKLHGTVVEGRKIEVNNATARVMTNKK
AUUAAAUGUUUUAGUAUUUUGAACUGAAAUGGACAAAAAAAGAAAAAGGAAAAAAAAAGCAGGUUUGAACGAUCACUUUGUGGCCUCCUGGCCACUUUUAGACAUUAUCA: 0.687
CAGGCCAGGGCAGAUGGCCAAGGGUAGAAAGGUGUGCUAACGUGGCCAGGGAUGGCCGGAGAGCUUCGGGUUCCACUAUGUUCACAUGGAUGCCCCAGCGCCUGGGGUGA: 0.691
UGAUGUAUGAACACAAAACCCAAUAAAAAUCUUUGAAUAGGAGCCUGGAAGCUCAAGAAGAAAAUGAUCUGGCUUUGCAUUAAGUCACCUUUGUCACCUUCUCUGCCUCC: 0.594
UGGUGUAAAUUUUAAAAUUUUGUAUAGGUAUUUCAUAACAAAAAAUUAUGUAUUUCUUUGUUAUUUUAUCUUGAAGACGGUACAUAUUUUCGUAUUUGUGCAGAAAAACA: 0.881
AUAUUUAUUGCAAAGCAAGCCUGGUCAUACUUGCUGCUUGAGAAGCUGAGGCAGGAGGAUCAUGAAUUCAAAGCCAGCCUGGGAUACAUAGCAAGUUUCAGGGCAGUGUG: 0.487
AAUCAACAGAUUUGUGGACCCUGGUAAAGAAGUUCAGCCAAGUCUCAGUGAAAAAUGUUAAGAAGUUGAUGCAAGCUGCAUGCUCCUUGUUAAGAUGCAGGCUUUGCAUA: 1.28
UGGCGGCUGCCGGCCUCUGGGGGAGGUGGCAGUUAUGCUGUUACUAGUGAUUUUAGGGCUUUGUUAUUUAACUUAUUUCAAGGGUGCUGUGCUCAGCCCUGCCCAUGGCU: 0.493
CUCCGCAAGCCUCCUGCAGCGCCCGCCUGCCAAUGUGAGGCUGGCACCAGGCUGCAGCCUCCCCAAUCCCAGCCCACUUUGCUGUGUCUCUGGCGGGCUGUCCUCCUUGG: 0.329
GACACAGCCUUUUUGAUCAUUUCUUUGAUGUGAAAAGCAUCUUUGGUUAUCAGUUAAAUUGAGGUGGACAUUAUUUCCCCAAUUUCACAACAGGAUUCACAUUGUUAAUU: 0.333
GGGGUUUCUUGUCUGCAGAGUGUAGAGACUCAUCAGUGUACAGAUGAGACCUGCUCAUCGUGCGACUGUAACCCUUCAGUCCUAGCUGCUUUUGAAGAGGUUUCCAUUUU: 0.429
AAAUACAAACCAACAGAAACUUGUUAUGCACUCAUCAAAAUGUACUAAUGGGUACUCUGAACUCAUUAACAUUGACAUCUGCAACAGGAGGCAACAGGGAAAAAAUCUCA: 0.34
GAGGCCUAUUGCUGGAGUUCAGAUACUGCAGCUCCUCUUGUUUUUCUGCACUGUGUUUGCCAGCCCUGCCCCCAUCUGAUGGACCAGGCAGUCCUUUAUCUGGAGGGAAA: 0.372

Series 3 — technique: protein-binding microarray; molecule type: double-stranded DNA, one strand shown; medium: in vitro; tested at: not given; reading: higher = stronger binding; measurement: E-score
Target: Hepatocyte nuclear factor 3-beta, forkhead domain (FOXA2, Homo sapiens, UniProt Q9Y261, residues 142-269)
Notes: k-mer, scored over probes, only values ≥0.25
Construct (chain): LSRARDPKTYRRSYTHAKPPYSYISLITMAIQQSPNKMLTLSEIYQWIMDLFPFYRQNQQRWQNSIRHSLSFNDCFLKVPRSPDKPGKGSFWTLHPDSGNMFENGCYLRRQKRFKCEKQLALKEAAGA
ATACACTG: 0.286
CCATATAG: 0.271
ATGATTCC: 0.258
ATAGTCTG: 0.26
ATGCACAT: 0.277
TATATGCA: 0.298
AGTATAAC: 0.278
AAATAATG: 0.265
ATAATTGC: 0.266
CAAACAGA: 0.275
CACAACAC: 0.28
ATCAATAC: 0.287
ATATTTAG: 0.294
AAATATTT: 0.384
TGCATACA: 0.397
ACAAATAG: 0.41
ACAAATAA: 0.372
ATATGTTC: 0.28
TATCAACA: 0.379
ATACCAAC: 0.251
ATAACACA: 0.409
CATACACA: 0.334
ACGATTAT: 0.274
CAATATAG: 0.308

Series 4 — technique: RNA Bind-n-Seq; molecule type: RNA; medium: in vitro; tested at: not given; reference: input RNA pool; reading: higher = stronger binding; measurement: bound/input enrichment
Target: RING finger protein unkempt homolog, zinc fingers 1-6, GST-SBP tag (UNK, Homo sapiens, UniProt Q9C0B0, residues 30-357)
Sequence of UniProt Q9C0B0 (30-357, looked up): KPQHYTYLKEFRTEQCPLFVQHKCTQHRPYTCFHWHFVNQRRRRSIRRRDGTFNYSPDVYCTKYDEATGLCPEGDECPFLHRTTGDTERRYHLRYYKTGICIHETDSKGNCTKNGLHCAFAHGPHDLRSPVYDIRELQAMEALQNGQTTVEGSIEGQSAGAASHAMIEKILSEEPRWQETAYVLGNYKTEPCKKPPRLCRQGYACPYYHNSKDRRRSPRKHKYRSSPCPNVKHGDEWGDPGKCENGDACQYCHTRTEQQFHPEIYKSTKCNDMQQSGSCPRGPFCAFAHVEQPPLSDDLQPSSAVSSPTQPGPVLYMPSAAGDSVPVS
Notes: RNA with constant flanks, human-mouse chimeric sites, ends assumed
Constant ends, left off below: GGGAGUUCUACAGUCCGACGAUC … CAACAGAGGAUUGAGCAUCA
GACUUGGGACCGUCCUGGGCUAGUACAAAUAGCGGCAGUGGAGGCUCGAGAGGAAAGUUUGUUAGUGGAGGCAGUGGUAGAGGCCGUCAUGUACGGUCUUUACACGAAUAGAUGUGUUCU: 0.759 ratio
GUCAACAGCUGCCUCAACCCCAUCCUCUACGCCUUCCUGGAUGAGAACUUCAAGGCCUGCUUCCGCAAGUUCUGCUGUGCAUCUGCCCUGCGCCGGGAGAUGCAGGUGUCUGACCGCGUG: 0.268 ratio
UUACCCGAGAACGAGGAUGAGCUGGAGAGCACCAACAGACGCUAUACCAAGAGGGACUGCAGCACUUUCCUCAGAACUAGCGAGACGGGCAUCGUGGACCAGGUCAUGGUCACUCUCAAC: 0.177 ratio
UGGCGCCUGCGCUCCCCACUCGUGUUUUUAAGUGUAUUUUUAUAAGACAUGUGUAUUUACAAUUGAGCUUUUGUUACUAUAAUACUGAAUGCUACUGGAGAUUAUGAAAAAUGUUUCAAU: 0.284 ratio
UGUGCCCCACAAGAUCCUACCUGAGUGGCAGCUGAAGUUGACUCCCUCUCCUUGCCUGAACCCCCCCCCACUGCCCCCCCAUCCCCCAGUGUCGGCUGAGAUGUUGCCUCUGCACGGUUC: 0.661 ratio
GGAUUCCGCUUCCGGUUCCGUUGGGCUCGGUUCUCUCAGUGCUACGUUGUCUCUACGCUCUCAAUCCGCCAUCCAACAAACAUGGAUCAGGUAAUGCAGUUUGUGGAGCCCAGCCGGCAG: 0.075 ratio
GCAGGAUCUUCUAAAUACCAGUGGGACAUUAUGAAAUCCCUUGGGCUCUCUGAUGACGACAUAGUGAAGUUUUCUGAAGCAGAGCACUGGCUUGAUUAUUUCCCACCACUGGCCGUUCAG: 0.136 ratio
UACUACUGAAUCUGUGAUAUUGGAAAUUAUUAUUAUGGCCAGGGUCAUCCCAUGAAGCCUCAUAGAAUCCGGAUGACUCAUAACUUGCUGCUAAAUUAUGGUUUAUACCGAAAAAUGGAA: 0.333 ratio
AUUGUUGAAGCUAACCCACUUUUAGAAGCCUUUGGAAAUGCAAAGACUGUUCGCAACAAUAAUAGCAGUCGAUUUGGAAAAUUUGUAGAAAUUCAUUUCAAUGAAAAGAGUUCGGUUGUU: 0.589 ratio
GGUGGGGUGGUCAUUGCCGUUUGAGCUGCUGAUUUUCAUGAGUCGCCUUCAAAACUCUCGCAUAGGGUUGACAAUGUGGGGGGGUGGGGGAUCCAGCUUAUUCUUUUAUUUUCAAGUCCA: 0.438 ratio
GCUCUUGGGAAUGUAAUAAGUGCCUUGGGGGACAAGAGCAAGAGAGCCACCCAUGUCCCUUACAGAGACUCUAAGCUGACAAGACUCUUGCAGGAUUCCCUUGGGGGUAAUAGCCAAACC: 0.176 ratio

Series 5 — technique: protein-binding microarray; molecule type: double-stranded DNA, one strand shown; medium: in vitro; tested at: 2200 nM top; notes: 60-bp whole probe; added: salmon DNA 0.4 mg/ml; reference: random background probes; reading: higher = stronger binding; measurement: fitted relative affinity; constant ends, left off below: GCCTAGCAC … GTCTTGATTCGCTTGACGCTGCTG
Target: Interferon regulatory factor 7, full length, phosphomimetic (IRF7, Homo sapiens, UniProt Q92985, residues 1-503, S471D/S472D/S475D/S476D/S477D/S483D/S484D/S487D)
Residues (chain): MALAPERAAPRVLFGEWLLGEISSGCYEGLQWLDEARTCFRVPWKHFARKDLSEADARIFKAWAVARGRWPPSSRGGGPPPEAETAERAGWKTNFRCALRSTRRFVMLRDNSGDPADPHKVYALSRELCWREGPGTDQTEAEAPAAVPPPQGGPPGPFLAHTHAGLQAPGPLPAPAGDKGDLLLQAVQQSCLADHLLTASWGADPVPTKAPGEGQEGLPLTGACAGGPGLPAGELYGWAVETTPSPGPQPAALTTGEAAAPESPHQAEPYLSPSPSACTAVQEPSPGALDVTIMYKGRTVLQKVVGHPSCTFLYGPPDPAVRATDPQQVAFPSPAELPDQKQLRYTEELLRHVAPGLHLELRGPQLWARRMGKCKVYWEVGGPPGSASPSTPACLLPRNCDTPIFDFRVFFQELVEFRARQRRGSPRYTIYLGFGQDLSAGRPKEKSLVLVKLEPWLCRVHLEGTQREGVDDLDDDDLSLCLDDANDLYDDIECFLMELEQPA
GACGGTTTCTACACTGGGGACGTGCTA: 1.28 z-score
TCAGGTCTGTTTCTGATACTGTGCTAG: 1.29 z-score
TTAGGACTGCTCCTGCTTTAGTGCTAG: -0.232 z-score
TTAGAACGGGGGTTTCGATTAGTGCTA: 3.15 z-score
CTAGGTTTCGGGTATCGGTTAGTGCTA: 6.19 z-score
TCATGTTTGTCACTCTCACTGTGCTAG: 2.19 z-score
TCTCTTTTTGCTTTCTTTTAGTGCTAG: 3.97 z-score
TTAGATTTCGGTTTCGGTTAGTGCTAG: 14.4 z-score
ATTTGCTTCAGGTTTACCAGAGTGCTA: 1.44 z-score
CTTTTTTTTTTTTTTTTTTGGTGCTAG: 1.99 z-score
GTAGGTATCCTACTGCTTTAGTGCTAG: 0.622 z-score
TGATCCAAAAAGTGTGAGAAGTGCTAG: -0.251 z-score
TATTCTCTACTTGTGTCTAGGTGCTAG: 2.05 z-score
TCACTACTGCATTTTTTACTGTGCTAG: 1.15 z-score
TCAGTTTTCACTTTTCCACTGTGCTAG: 6.46 z-score
TCAAGTCTCTGTTCTTTACTGTGCTAG: 1.26 z-score
ACGAGTTTCCATTTTCTGAAGTGCTAG: 4.51 z-score
TTAGATTTCAGACTGGATGAGTGCTAG: -0.181 z-score
TCACCTATTTATATGAGACTGTGCTAG: 1.37 z-score
TTAGAACTGGGGACTTGATTAGTGCTA: -0.24 z-score
TTAGGTATCGCCTTTCGGTTAGTGCTA: 2.81 z-score
TTAGATTTCAGTCTCAATTAGTGCTAG: 0.443 z-score

Series 6 — technique: universal PBM; molecule type: double-stranded DNA, one strand shown; medium: in vitro; tested at: 600 nM; reading: higher = stronger binding; measurement: E-score
Target: Sal-like protein 4, full length isoform A (SALL4, Homo sapiens, UniProt Q9UJQ4, residues 1-1053)
Sequence of UniProt Q9UJQ4 (whole entry, looked up): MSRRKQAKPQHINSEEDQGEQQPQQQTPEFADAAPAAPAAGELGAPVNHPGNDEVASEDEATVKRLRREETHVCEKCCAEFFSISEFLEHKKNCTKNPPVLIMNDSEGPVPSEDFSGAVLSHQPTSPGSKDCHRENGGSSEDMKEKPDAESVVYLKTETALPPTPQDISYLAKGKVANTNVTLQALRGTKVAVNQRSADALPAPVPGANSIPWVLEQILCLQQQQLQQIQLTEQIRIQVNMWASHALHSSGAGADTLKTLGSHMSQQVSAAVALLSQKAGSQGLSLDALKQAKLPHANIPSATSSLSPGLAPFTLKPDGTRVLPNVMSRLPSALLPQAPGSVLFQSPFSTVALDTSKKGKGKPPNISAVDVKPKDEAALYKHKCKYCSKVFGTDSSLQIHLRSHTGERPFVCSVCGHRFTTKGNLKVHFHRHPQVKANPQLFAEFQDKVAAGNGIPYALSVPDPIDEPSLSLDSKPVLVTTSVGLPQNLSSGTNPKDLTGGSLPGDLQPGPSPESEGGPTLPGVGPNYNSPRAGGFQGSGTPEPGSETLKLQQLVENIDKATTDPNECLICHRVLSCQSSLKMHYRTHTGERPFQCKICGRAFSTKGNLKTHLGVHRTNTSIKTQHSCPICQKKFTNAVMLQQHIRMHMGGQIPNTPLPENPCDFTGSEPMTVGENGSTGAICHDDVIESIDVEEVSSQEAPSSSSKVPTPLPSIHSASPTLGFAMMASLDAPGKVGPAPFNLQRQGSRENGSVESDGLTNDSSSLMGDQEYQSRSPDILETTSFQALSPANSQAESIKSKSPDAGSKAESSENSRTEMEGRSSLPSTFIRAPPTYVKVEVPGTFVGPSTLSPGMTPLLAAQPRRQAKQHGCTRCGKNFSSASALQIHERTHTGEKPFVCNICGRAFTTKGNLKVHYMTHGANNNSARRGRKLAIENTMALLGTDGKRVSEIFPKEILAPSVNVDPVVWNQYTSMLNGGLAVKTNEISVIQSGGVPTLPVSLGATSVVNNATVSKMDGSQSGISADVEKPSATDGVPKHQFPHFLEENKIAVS
Notes: 8-mer, flanks averaged, mean of replicates
CATCCAAC: 0.0063
AGCGAGAC: -0.333
GTGAAATA: 0.252
AGAGACGA: 0.0328
GTGATCAA: 0.0683
TAGATCAA: 0.184
GGTCGACA: -0.222
CCTCCCGA: -0.218
AGTGTACA: 0.109
CCCTCGCA: -0.143
AAACTATT: 0.274
AATGCGAT: 0.166
CGGGAGGC: -0.354
TCCGTCAA: 0.102
ATATGGCC: 0.0491
AGGATTAT: 0.261
CGCGGCCA: -0.282
ACCGAGGG: -0.397
CCTACCAC: -0.195
AGTACCGG: -0.255
GACAACGA: -0.0185
GGAGCACC: -0.299
CGTATCAA: 0.141

A few entries again (series 6):
GGTCGACA: -0.222
CCTCCCGA: -0.218
AGTGTACA: 0.109
CCCTCGCA: -0.143
AAACTATT: 0.274
AATGCGAT: 0.166
CGGGAGGC: -0.354
TCCGTCAA: 0.102
ATATGGCC: 0.0491
AGGATTAT: 0.261
CGCGGCCA: -0.282
ACCGAGGG: -0.397
CCTACCAC: -0.195
